Assay results from different studies.
Parts stem from different laboratories: compare values within a part only. Substitutions count along the parent as printed.

Series 1
Target: Interferon regulatory factor 3, full length, phosphomimetic (IRF3, Homo sapiens, UniProt Q14653, residues 1-427, S386D/S396D/S398D/S402D/T404D/S405D)
Method: protein-binding microarray
Form: double-stranded DNA, one strand shown
Medium: in vitro
Concentration: 2540 nM top
Setting: 60-bp whole probe
Together with: salmon DNA 0.4 mg/ml
Reference: random background probes
Reading: higher = stronger binding
Constant ends, left off below: GCCTAGCAC … GTCTTGATTCGCTTGACGCTGCTG
Residues (chain): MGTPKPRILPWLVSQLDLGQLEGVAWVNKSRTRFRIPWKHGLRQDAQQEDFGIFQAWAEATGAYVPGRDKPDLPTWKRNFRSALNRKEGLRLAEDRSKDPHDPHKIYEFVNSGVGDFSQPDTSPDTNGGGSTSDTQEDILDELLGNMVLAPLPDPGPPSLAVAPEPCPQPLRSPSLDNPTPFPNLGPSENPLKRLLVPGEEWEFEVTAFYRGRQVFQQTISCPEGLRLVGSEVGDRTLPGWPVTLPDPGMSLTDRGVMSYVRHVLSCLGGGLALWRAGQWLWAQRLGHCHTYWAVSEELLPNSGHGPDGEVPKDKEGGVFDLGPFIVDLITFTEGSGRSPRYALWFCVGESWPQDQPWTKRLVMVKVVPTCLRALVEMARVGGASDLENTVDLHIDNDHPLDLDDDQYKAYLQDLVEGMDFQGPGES
| Oligonucleotide | fitted relative affinity |
| --- | --- |
| TCATCTATGTCTGTTTTACTGTGCTAG | 0.91 z-score |
| TTAGGTTTCCTACTGCCTTAGTGCTAG | 4.85 z-score |
| TTAGGTCTCGGACTGGGTCAGTGCTAG | -0.306 z-score |
| TTAGACTTCAGACTGGATTAGTGCTAG | -0.417 z-score |
| GACGGGTTCCTTATCCTGACGTGCTAG | 2.78 z-score |
| GACGGTATCCACTTTCGGGACGTGCTA | 2.85 z-score |
| TTAGATCTCAGTATCGATGAGTGCTAG | 0.484 z-score |
| TCACCAATCTCTCTTCAACTGTGCTAG | 2.42 z-score |
| TTAGGTTTCGGTTTGGGTTAGTGCTAG | 8.94 z-score |
| TTAGGTCTCGGGTATCGGTTAGTGCTA | 0.543 z-score |
| TTTCATTGCTGCCCTCAGAAAGTGCTA | 1.78 z-score |
| GACGGACTGATACTGCTGACGTGCTAG | -0.269 z-score |
| TTAGGTCCCGGTTTCGGTTAGTGCTAG | 4.24 z-score |
| TCAGGAGTGTTTCTCAGACTGTGCTAG | -0.0178 z-score |
| GACGATTTCAGTCACGAGACGTGCTAG | 0.851 z-score |
| GACCATCTCAGTTTCGAGACGTGCTAG | 3.05 z-score |
| GACGGTGTCGGTCTCGGGACGTGCTAG | 2.77 z-score |
| GTCGGTATCGACTATCGGGACGTGCTA | 1.52 z-score |
| GACGGGCTGGGGTTTCGGGACGTGCTA | 0.0945 z-score |

Series 2
Target: RNA binding protein fox-1 homolog 2, RRM domain, GST-SBP tag (RBFOX2, Homo sapiens, UniProt O43251-10, residues 100-194)
Method: RNA Bind-n-Seq
Form: RNA
Medium: in vitro
Concentration: 365 nM
Setting: natural RNA segment, single round, ends assumed
Reference: no-protein control
Reading: higher = stronger binding
Constant ends, left off below: GGGAGUUCUACAGUCCGACGAUC … UGGAAUUCUCGGGUGCCAA
Target sequence (chain): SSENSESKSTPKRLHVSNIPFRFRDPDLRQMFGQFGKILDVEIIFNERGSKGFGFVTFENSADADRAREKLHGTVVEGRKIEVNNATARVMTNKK
| Oligonucleotide | RBNS enrichment (R) |
| --- | --- |
| UGAGGUUUUUCCUUCCCUGUGAAGAAAUACCAACCUUUGGACCCAAUAACAUUCAUAACUGGUAGAGACGUUUAUGUUGUUACAUGUGCUUUGUGUGUUGCUUUUAUUGA | 0.294 |
| CCUCUUUGCUGUUUCUCUGGGCUCCUGAGCAUACCAGGGGAAGUUCUAGAAACCGCAGCUGACAUCUCGACCCAAGAGAUUUAGGAUUCUCCUGUUUCAUCUGGGUCAGU | 0.22 |
| AGAGACCCAGCCGGAGGGAUGCCAUUGCUGCGGGGUAGACUGAGUGCCAAGGCUCUUGGCACAGGACUCACAUCUGGGCCACUCAGCUUGACCGAAGGCUGUGUGUGAAA | 0.58 |
| UCUCUCUGAAUGUACUGUGUGAUGAUGCAUCAUGCAUGAACCUUCGGUCAGGGAUAUCAUUGGUGAAGUGAUUUCAAAAAGUAUUCAAAAUUUGAUAUGCUGUUUAGUCA | 0.223 |
| UGGAUACCAAUCUCUCCUGUCUUUAAUGUUAUUUUCAAAGACUACUCUCAAGAUCCAUUAGCUUUUAAAAUUUCUGCCUCUGAGUCUGAAGCCCAGGUGGACAGCCAUUU | 0.551 |
| UUUGUGUGUCCAGUGAAGGAACAGAACUAGAAGCCCAUUCAGCAACCUGUGAGAUUCUUACACAGGGGUUGGCUUCUCUAUGUUAGCCAGGGGUGCUGUAAGAACUCAGG | 0.738 |
| AAAGAUCAGAAGCCUUCAGAUAGAGGGUGGUAUUCUGGUAAAGAAGAAAGAGAUAAGGGACGCUACCUUGCUUUUCUGGCACAGGAAGCACAUGAUAAAGCAUGCUCAGA | 5.43 |
| CUCGGUGGCAGAGCCUGGCUAGUGACUACCAUGUUGGUCAGUGCAGCCUGCUAUCACUCCUUCAAGCACAGUUCUGAACCCAGUCCAUCCAUCCAGUGGGCCAGCUCCCA | 0.428 |

Series 3
Target: Prothrombin, mature alpha-thrombin (F2, Homo sapiens, UniProt P00734)
Method: aptamer microarray, sandwich
Form: DNA with 2'F-ANA
Medium: in vitro
Concentration: 200 nM
Setting: whole 15-mer aptamer, many near background
Together with: Cy3 exosite-II aptamer, 400 nM
Reading: higher = stronger binding
Oligonucleotide: GGTTGGTGTGGTTGG
| Modification | mean fluorescence intensity |
| --- | --- |
| 2'F-ANA at 1 4 5 9 10 13 | 43.5 a.u. |
| 2'F-ANA at 2 3 4 5 6 8 10 14 | 62.6 a.u. |
| 2'F-ANA at 3 5 7 9 11 12 14 | 57.1 a.u. |
| 2'F-ANA at 1 2 7 8 9 12 13 15 | 281 a.u. |
| 2'F-ANA at 4 6 7 9 10 13 14 15 | 69.2 a.u. |
| 2'F-ANA at 5 6 9 13 14 | 45.2 a.u. |
| 2'F-ANA at 2 5 8 9 11 12 14 | 51.5 a.u. |
| 2'F-ANA at 1 2 3 5 6 10 11 12 14 | 47.8 a.u. |
| 2'F-ANA at 3 4 5 6 9 13 14 15 | 50.2 a.u. |
| 2'F-ANA at 3 4 8 10 11 13 14 15 | 195 a.u. |
| 2'F-ANA at 3 4 5 7 9 12 | 215 a.u. |
| 2'F-ANA at 5 6 7 8 13 14 15 | 52.4 a.u. |
| 2'F-ANA at 2 4 5 7 9 11 15 | 76.6 a.u. |
| 2'F-ANA at 1 7 8 9 10 11 12 14 15 | 50.3 a.u. |
| 2'F-ANA at 1 4 5 7 9 12 | 125 a.u. |
| 2'F-ANA at 1 3 4 6 8 9 13 | 139 a.u. |
| 2'F-ANA at 2 3 4 7 11 12 | 818 a.u. |
| 2'F-ANA at 3 4 5 9 10 11 12 14 | 53.6 a.u. |
| 2'F-ANA at 3 5 6 7 8 12 13 14 15 | 59.2 a.u. |
| 2'F-ANA at 1 3 4 8 11 | 227 a.u. |
| 2'F-ANA at 7 10 11 13 | 199 a.u. |
| 2'F-ANA at 3 6 7 9 10 11 12 13 15 | 407 a.u. |
| 2'F-ANA at 1 2 5 7 8 9 11 12 13 15 | 67.4 a.u. |

Series 4
Target: CCNB1, cyclin fold, Cln2 fusion (human)
Method: yeast growth competition, sequencing
Medium: yeast
Setting: weak parent motif
Reference: not given
Reading: higher = stronger binding
Starting sequence: ORC1 docking peptide (human); PRARKRLELGNLG
| Substitution | normalised enrichment score |
| --- | --- |
| E8R | 0.706 |
| R4E | 0.587 |
| E8T | 0.0289 |
| L9A | 1.03 |
| R2S | 0.298 |
| L9G | 0.555 |
| L9W | 0.328 |
| L9Y | 0.453 |
| R6Y | 0.656 |
| P1M | -0.519 |
| K5S | -0.0523 |
| K5R | 0.349 |
| R4G | 0.669 |
| E8G | -0.101 |
| G13C | 1.01 |
| G10H | -0.302 |
| R2N | 0.895 |
| N11S | 0.463 |
| A3R | 0.57 |
| G10R | 0.539 |
| G13R | 0.246 |
| G13Y | 0.589 |
| A3Y | 1.63 |
| P1H | 0.0477 |
| P1L | 0.701 |

Repeated from above (series 3):
| Modification | mean fluorescence intensity |
| --- | --- |
| 2'F-ANA at 1 2 7 8 9 12 13 15 | 281 a.u. |
| 2'F-ANA at 4 6 7 9 10 13 14 15 | 69.2 a.u. |
| 2'F-ANA at 1 4 5 7 9 12 | 125 a.u. |
| 2'F-ANA at 5 6 9 13 14 | 45.2 a.u. |
| 2'F-ANA at 3 4 8 10 11 13 14 15 | 195 a.u. |
| 2'F-ANA at 1 2 5 7 8 9 11 12 13 15 | 67.4 a.u. |
